Results of several laboratories.
Each line is one published result; not all experiments were run side by side. ± gives the spread as reported.

| SMILES | assay | test system | conditions | how to read | measurement | result |
| --- | --- | --- | --- | --- | --- | --- |
| CC1(C)C(C(=O)c2cn(CCCCCF)c3ccccc23)C1(C)C | hypothermia, mouse tetrad, refers to: rectal temperature | ICR mouse male | intravenous | – | ED50 | 0.6 µmol/kg |
| CC(C)C[C@H](CN)CC(=O)O | mechanical withdrawal threshold | mouse, paclitaxel neuropathic pain | oral | – | ED50 | 7.5 mg/kg |
| CCCCCn1cc(C(=O)C2C(C)(C)C2(C)C)c2ccccc21 | spontaneous locomotor activity, mouse tetrad | ICR mouse male | intravenous | – | ED50 | 1 µmol/kg |
| CCCC(NC)C(=O)c1ccc2c(c1)OCO2 (racemic) | – | C57BL/6J male mice | sc, 30 mg/kg | – | locomotor recovery time | ~60 min |
| CCCCCc1cc(O)c2c(c1)OC(C)(C)[C@@H]1CCC(C)=C[C@@H]21 | hypothermia (rectal temperature) | ICR mouse, male | intravenous | – | ED50 | 4 µmol/kg |
| COC(=O)[C@H]1[C@@H](OC(=O)c2ccccc2)C[C@@H]2CC[C@H]1N2C | self-administration | Sprague-Dawley rat, male | intravenous, 0.32 mg/kg/injection, fourth component | – | maximum response rate | 0.281 ± 0.11 responses/s |
| CNC(C)C(=O)c1ccccc1 (racemic) | ICSS facilitation, intracranial self-stimulation | rat | – | baseline: baseline | Emax | 180% |
| COC(=O)[C@@H](NC(=O)c1nn(Cc2ccc(F)cc2)c2ccccc12)C(C)(C)C | reversal of mechanical allodynia | mouse, spared nerve injury model | intraperitoneal | – | ED50 | 0.01 mg/kg |
| CNC1(c2ccccc2Cl)CCCCC1=O (racemic) | intracerebral microdialysis | BALB/cJ mice, medial prefrontal cortex | intraperitoneal, 10 mg/kg single, 24 h | baseline: vehicle | extracellular glutamate | increased |
| CNC(C)(C)C(=O)c1ccccc1 | ICSS facilitation, intracranial self-stimulation | rat | – | baseline: baseline | Emax | 189% |
| NCC1(CC(=O)O)CCCCC1 | – | mouse, formalin paw test | oral, 300 mg/kg, late phase | baseline: vehicle, direction not given | change in licking score | -76% |
| C#CCN(C)[C@H](C)Cc1ccccc1 | – | dentate gyrus granule cells, APP/PS1 mice | oral, 10 mg/kg, 672 h, 4 weeks treatment, added: 300 µA stimulation | – | evoked spike probability | 0.158 ± 0.0848 |
| C[C@]12CC[C@H]3[C@@H](CC=C4CC(O)CC[C@@]43CO)[C@@H]1CCC2O (stereo partly drawn) | immunoblot, refers to: cleaved caspase-3, TGF-β1, ACTA2, CD11B | rat, GAN diet-induced MASH, liver | dose not given | baseline: vehicle | liver marker protein levels | decreased |
| CCN(CC)C(=O)[C@@H]1C=C2c3cccc4[nH]cc(c34)C[C@H]2N(C)C1 | – | healthy participants | dose not given, end-of-study assessment | baseline: compound over placebo | participants rating experience more valuable | 61% |
| Cn1cc(Nc2nccc(-c3ccc4c(c3)CN(C3COC3)CC[C@H]4NC(=O)c3cn(C(C)(C)C)nn3)n2)cn1 | refers to: PI3K/AKT in influenza | splenic B cells, mice | 30 mg/kg, IgD-activated in vivo | baseline: vehicle, direction not given | pathway activation z-score | 3.32 |

Some of these lines once more:
| SMILES | assay | test system | conditions | how to read | measurement | result |
| --- | --- | --- | --- | --- | --- | --- |
| C#CCN(C)[C@H](C)Cc1ccccc1 | – | dentate gyrus granule cells, APP/PS1 mice | oral, 10 mg/kg, 672 h, 4 weeks treatment, added: 300 µA stimulation | – | evoked spike probability | 0.158 ± 0.0848 |
| C[C@]12CC[C@H]3[C@@H](CC=C4CC(O)CC[C@@]43CO)[C@@H]1CCC2O (stereo partly drawn) | immunoblot, refers to: cleaved caspase-3, TGF-β1, ACTA2, CD11B | rat, GAN diet-induced MASH, liver | dose not given | baseline: vehicle | liver marker protein levels | decreased |
